Measured values of several laboratories.
Each line is one published result; not all experiments were run side by side. ± marks the error that the study gave.
TDP1: Tyrosyl-DNA phosphodiesterase 1 (TDP1, Homo sapiens, UniProt Q9NUW8)
Sequence of UniProt Q9NUW8 (whole entry, looked up): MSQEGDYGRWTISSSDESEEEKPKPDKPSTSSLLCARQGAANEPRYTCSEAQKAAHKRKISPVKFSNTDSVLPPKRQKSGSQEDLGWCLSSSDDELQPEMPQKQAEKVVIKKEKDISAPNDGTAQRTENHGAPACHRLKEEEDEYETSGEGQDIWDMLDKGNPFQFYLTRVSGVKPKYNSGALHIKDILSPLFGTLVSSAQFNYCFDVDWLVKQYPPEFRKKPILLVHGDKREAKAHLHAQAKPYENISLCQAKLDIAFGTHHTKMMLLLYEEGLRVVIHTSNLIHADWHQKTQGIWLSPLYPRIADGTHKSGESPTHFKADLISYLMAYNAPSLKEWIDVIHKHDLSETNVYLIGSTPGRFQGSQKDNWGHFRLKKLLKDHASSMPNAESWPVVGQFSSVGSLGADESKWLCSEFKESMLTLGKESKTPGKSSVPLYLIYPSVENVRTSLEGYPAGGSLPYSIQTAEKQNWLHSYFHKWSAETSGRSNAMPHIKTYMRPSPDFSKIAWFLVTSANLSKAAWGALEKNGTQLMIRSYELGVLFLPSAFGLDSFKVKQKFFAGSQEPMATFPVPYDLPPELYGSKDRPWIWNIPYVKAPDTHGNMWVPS

| Compound | target or system | test | test system | conditions | quantity | result |
| --- | --- | --- | --- | --- | --- | --- |
| COc1ccc(Nc2nc(Nc3ccc(OCCOCC[18F])cc3)ncc2Br)cc1 | – | – | ICR mice, S180 tumour-bearing, heart | intravenous, 370 kBq, 15 min | tissue uptake | 2.81 ± 0.09 %ID/g |
| COc1cccc(OC)c1-c1cc(C(=O)NC2(C(=O)O)C3CC4CC(C3)CC2C4)nn1-c1ccc(C(=O)N(C)CCOCCOCCN(C)C(=O)[C@H](CCCCNC(=O)[C@H](CC(C)C)NC(=O)C2OC2C(=O)O)NC(=O)CN2CCN(CC(=O)[O-])CCN(CC(=O)[O-])CCN(CC(=O)[O-])CC2)cc1C(C)C.[177Lu+3] (mixture of isomers) | – | – | mouse HT-29 xenograft, large intestine | 24 h post injection, biodistribution | tissue uptake | 0.187 %ID/g |
| CCNc1sc(C(C)=O)c(N)c1C#N | Uncharacterized protein (Trypanosoma brucei brucei, UniProt Q386Q8) | enzyme activity, inhibitor, coupled colorimetric | – | added: E. coli pyrophosphatase coupling | IC50 | 90.7 µM |
| O=C(O)c1ccc(Nc2c(-c3ccccc3)nc3ccc(CON=Cc4ccc(S(=O)(=O)c5ccc(Cl)cc5)o4)cn23)cc1 (mixture of isomers) | TDP1 | enzyme activity, inhibitor | – | 100 µM, unpurified compound | inhibition | 32.3% |
| COc1cccc(OC)c1-c1cc(C(=O)NC2(C(=O)O)C3CC4CC(C3)CC2C4)nn1-c1ccc(C(=O)NCCNC(=O)[C@H](CCCCNC(=O)[C@H](CC(C)C)NC(=O)C2OC2C(=O)O)NC(=O)CN2CCN(CC(=O)[O-])CCN(CC(=O)[O-])CCN(CC(=O)[O-])CC2)cc1C(C)C.[177Lu+3] (mixture of isomers) | – | – | mouse HT-29 xenograft, small intestine | 24 h post injection, biodistribution | tissue uptake | 0.42 %ID/g |
| [123I]c1ccc2nc(-c3ccc(-n4ccnn4)nc3)cn2c1 | – | – | male Wistar rat, small intestine | intravenous, 4 MBq, 5 min | tissue uptake | 2.84 ± 0.292 %ID/g |
| O=C(O)c1ccc(Nc2c(-c3ccccc3)nc3ccc(CON=Cc4ccc(O)c5ncccc45)cn23)cc1 | TDP1 | enzyme activity, inhibitor | – | 100 µM, unpurified compound | inhibition | 25.6% |
| CCCC[C@H](NC(=O)CNC(=O)CNC(=O)[C@H](CCCCNC(=O)[C@H](CC(=O)O)NC(=O)C(C)c1ccc(CC(C)C)cc1)NC(=O)CN1CCN(CC(=O)O)CCN(CC(=O)O)CCN(CC(=O)O)CC1)C(=O)N[C@H]1CC(=O)NCCCC[C@@H](C(N)=O)NC(=O)[C@H](Cc2c[nH]c3ccccc23)NC(=O)[C@H](CCCNC(=N)N)NC(=O)[C@@H](Cc2ccccc2)NC(=O)[C@H](Cc2c[nH]cn2)NC1=O (stereo partly shown) [lutetium-177 labelled] | – | – | C57 mouse, skin | intravenous, 2 h, added: 10 µg NDP-MSH co-injection | tissue uptake | 0.85 ± 0.04 %ID/g |
| COc1ccc(Nc2nc(Nc3ccc(OCCOCCOCC[18F])cc3)ncc2Br)cc1 | – | – | ICR mice, S180 tumour-bearing, kidney | intravenous, 370 kBq, 30 min | tissue uptake | 4.39 ± 0.07 %ID/g |
| N#C[C@@H]1CC(F)(F)CN1C(=O)CNC(=O)c1ccnc2c(NC(=O)[C@H](CCCCNC(=O)CCOCCOCCOCCOCCOCCOCCNC(=O)CN3CCN(CC(=O)[O-])CCN(CC(=O)[O-])CCN(CC(=O)[O-])CC3)NC(=O)CCCc3ccc(I)cc3)cccc12.[177Lu+3] | – | – | mouse, U-87 MG tumour xenograft, lung | 72 h | tissue uptake | 0.27 ± 0.43 %ID/g |
| O=C(O)CCCOc1ccc([18F])cc1-c1cc(-c2ccccc2C(F)(F)F)n(-c2ccccc2)n1 | – | – | mouse, large intestine | intravenous, dose not given, 360 min | tissue uptake | 6.36 ± 1.43 %ID/g |
| COc1cccc(OC)c1-c1cc(C(=O)NC2(C(=O)O)C3CC4CC(C3)CC2C4)nn1-c1ccc(C(=O)N(C)CCOCCN(C)C(=O)[C@H](CCCCNC(=O)[C@H](CC(C)C)NC(=O)C2OC2C(=O)O)NC(=O)CN2CCN(CC(=O)[O-])CCN(CC(=O)[O-])CCN(CC(=O)[O-])CC2)cc1C(C)C.[177Lu+3] (mixture of isomers) | – | – | mouse HT-29 xenograft, large intestine | 168 h post injection, biodistribution | tissue uptake | 0.06 %ID/g |
| N#C[C@@H]1CC(F)(F)CN1C(=O)CNC(=O)c1ccnc2c(NC(=O)[C@@H](N)CCCCNC(=O)CCOCCOCCOCCOCCOCCOCCNC(=O)CN3CCN(CC(=O)[O-])CCN(CC(=O)[O-])CCN(CC(=O)[O-])CC3)cccc12.[177Lu+3] | – | – | mouse, U-87 MG tumour xenograft, salivary gland | 1 h | tissue uptake | 0.85 ± 0.47 %ID/g |

Excerpt of the above:
| Compound | target or system | test | test system | conditions | quantity | result |
| --- | --- | --- | --- | --- | --- | --- |
| CCNc1sc(C(C)=O)c(N)c1C#N | Uncharacterized protein (Trypanosoma brucei brucei, UniProt Q386Q8) | enzyme activity, inhibitor, coupled colorimetric | – | added: E. coli pyrophosphatase coupling | IC50 | 90.7 µM |
